Measured values pooled from the literature.
Values joined by “and” are separate records of one study, mostly repeats; a detail may differ. ± gives the spread as reported.
Aryl hydrocarbon receptor: Aryl hydrocarbon receptor (Danio rerio, UniProt Q9YGV3)
STK16: Serine/threonine-protein kinase 16 (STK16, Homo sapiens, UniProt O75716)
Chain of UniProt O75716 (whole entry, looked up): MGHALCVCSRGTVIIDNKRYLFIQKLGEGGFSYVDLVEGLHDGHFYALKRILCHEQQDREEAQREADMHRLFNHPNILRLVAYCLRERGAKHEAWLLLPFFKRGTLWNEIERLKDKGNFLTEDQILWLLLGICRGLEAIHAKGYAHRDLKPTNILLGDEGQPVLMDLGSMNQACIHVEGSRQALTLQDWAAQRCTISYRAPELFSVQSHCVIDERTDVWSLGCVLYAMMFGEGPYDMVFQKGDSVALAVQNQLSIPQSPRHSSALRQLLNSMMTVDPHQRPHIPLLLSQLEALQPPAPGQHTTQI
Chain of UniProt P00519 (whole entry, unmodified, looked up): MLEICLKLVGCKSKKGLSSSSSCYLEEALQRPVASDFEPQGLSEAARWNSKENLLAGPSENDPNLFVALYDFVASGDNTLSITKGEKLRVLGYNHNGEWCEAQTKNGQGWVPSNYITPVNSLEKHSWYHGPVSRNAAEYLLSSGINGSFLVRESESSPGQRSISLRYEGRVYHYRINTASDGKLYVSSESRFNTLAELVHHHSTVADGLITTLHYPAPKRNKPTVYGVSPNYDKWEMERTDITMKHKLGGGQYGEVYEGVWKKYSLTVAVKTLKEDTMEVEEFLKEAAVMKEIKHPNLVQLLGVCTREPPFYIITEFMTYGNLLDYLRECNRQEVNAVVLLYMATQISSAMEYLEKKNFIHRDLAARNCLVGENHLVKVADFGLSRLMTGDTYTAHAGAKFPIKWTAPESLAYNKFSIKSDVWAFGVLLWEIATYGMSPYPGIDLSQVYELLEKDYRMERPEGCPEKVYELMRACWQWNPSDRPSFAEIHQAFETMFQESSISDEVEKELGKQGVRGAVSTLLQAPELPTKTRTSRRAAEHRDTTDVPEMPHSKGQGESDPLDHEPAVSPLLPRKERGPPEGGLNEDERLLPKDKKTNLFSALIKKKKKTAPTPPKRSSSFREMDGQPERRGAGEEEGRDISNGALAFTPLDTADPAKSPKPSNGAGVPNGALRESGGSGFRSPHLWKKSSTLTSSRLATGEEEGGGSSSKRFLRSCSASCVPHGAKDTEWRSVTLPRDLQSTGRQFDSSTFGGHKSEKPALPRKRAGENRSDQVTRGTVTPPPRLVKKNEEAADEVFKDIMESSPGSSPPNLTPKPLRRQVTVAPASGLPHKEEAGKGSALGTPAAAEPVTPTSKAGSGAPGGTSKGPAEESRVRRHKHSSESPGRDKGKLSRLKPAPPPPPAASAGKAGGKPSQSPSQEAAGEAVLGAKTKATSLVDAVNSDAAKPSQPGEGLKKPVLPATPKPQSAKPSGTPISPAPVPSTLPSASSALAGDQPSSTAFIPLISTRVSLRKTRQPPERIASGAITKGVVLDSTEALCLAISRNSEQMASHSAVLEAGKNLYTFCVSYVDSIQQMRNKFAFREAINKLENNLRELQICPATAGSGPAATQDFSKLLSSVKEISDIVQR
Chain of UniProt Q01105 (whole entry, unmodified, looked up): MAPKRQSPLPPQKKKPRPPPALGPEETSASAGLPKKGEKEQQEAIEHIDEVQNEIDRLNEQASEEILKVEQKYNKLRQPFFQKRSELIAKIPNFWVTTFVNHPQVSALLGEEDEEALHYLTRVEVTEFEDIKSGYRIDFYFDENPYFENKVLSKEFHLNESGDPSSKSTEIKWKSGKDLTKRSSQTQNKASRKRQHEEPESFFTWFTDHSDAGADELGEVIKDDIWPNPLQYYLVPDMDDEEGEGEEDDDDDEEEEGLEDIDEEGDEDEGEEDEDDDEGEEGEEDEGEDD
Chain of UniProt P25963 (whole entry, unmodified, looked up): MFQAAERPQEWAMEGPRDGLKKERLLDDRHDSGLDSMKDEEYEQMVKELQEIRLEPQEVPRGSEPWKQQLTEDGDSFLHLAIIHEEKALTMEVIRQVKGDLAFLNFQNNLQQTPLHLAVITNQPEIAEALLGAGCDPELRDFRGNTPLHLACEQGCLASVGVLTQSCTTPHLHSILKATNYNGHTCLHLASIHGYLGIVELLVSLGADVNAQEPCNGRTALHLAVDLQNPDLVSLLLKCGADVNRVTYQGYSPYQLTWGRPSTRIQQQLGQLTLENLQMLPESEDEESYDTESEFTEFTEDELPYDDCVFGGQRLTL
Chain of UniProt P62813 (whole entry, looked up): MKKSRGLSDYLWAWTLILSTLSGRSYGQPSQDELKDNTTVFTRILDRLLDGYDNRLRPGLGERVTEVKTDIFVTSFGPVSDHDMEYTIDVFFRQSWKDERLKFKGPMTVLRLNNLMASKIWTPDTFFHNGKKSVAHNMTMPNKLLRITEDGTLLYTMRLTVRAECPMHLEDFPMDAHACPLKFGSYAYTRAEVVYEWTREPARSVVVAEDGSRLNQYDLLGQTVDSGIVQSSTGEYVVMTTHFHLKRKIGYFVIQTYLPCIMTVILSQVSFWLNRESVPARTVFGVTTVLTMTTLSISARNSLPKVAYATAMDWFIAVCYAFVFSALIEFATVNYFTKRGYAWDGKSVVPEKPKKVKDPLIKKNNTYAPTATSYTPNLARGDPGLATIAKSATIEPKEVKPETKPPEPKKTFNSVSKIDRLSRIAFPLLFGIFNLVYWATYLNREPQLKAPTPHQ
Chain of UniProt P11388 (whole entry, looked up): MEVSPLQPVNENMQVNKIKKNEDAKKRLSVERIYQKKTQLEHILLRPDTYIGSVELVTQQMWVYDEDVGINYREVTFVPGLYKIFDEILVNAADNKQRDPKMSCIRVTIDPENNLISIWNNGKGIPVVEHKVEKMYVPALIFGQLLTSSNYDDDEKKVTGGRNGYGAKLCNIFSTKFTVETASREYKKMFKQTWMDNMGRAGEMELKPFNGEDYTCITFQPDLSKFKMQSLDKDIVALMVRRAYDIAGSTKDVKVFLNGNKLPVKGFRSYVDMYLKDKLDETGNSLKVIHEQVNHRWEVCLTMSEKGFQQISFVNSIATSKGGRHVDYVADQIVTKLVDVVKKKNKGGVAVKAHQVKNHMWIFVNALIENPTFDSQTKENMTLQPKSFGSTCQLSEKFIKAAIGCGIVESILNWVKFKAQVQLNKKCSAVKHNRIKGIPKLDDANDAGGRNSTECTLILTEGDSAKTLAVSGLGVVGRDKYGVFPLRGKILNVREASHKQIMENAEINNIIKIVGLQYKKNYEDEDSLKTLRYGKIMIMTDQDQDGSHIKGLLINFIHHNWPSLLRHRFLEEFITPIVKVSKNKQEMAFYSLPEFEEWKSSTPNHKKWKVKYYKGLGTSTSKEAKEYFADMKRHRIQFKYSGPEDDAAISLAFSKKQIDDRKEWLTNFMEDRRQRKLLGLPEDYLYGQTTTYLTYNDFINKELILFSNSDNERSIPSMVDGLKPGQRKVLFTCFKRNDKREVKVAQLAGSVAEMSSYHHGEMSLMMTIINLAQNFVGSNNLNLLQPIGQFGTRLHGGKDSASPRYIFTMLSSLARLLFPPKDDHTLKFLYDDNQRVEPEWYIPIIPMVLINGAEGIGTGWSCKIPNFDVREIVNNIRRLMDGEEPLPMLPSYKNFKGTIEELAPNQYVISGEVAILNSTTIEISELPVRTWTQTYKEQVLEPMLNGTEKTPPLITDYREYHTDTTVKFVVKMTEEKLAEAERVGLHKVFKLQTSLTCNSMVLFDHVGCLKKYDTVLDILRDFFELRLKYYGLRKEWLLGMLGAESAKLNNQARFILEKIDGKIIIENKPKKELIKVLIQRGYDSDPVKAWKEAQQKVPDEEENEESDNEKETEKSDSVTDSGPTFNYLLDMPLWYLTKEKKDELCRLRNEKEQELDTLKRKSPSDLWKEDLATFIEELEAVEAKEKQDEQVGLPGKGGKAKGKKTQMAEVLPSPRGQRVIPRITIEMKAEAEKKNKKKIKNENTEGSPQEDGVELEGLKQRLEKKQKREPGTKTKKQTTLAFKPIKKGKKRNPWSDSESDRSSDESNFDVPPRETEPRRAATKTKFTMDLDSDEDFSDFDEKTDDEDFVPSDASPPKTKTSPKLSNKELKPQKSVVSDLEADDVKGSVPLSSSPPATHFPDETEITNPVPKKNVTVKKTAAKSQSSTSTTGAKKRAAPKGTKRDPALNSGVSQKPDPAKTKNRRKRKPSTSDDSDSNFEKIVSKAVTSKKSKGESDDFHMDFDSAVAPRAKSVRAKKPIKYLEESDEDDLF
Chain of UniProt P63138 (whole entry, looked up): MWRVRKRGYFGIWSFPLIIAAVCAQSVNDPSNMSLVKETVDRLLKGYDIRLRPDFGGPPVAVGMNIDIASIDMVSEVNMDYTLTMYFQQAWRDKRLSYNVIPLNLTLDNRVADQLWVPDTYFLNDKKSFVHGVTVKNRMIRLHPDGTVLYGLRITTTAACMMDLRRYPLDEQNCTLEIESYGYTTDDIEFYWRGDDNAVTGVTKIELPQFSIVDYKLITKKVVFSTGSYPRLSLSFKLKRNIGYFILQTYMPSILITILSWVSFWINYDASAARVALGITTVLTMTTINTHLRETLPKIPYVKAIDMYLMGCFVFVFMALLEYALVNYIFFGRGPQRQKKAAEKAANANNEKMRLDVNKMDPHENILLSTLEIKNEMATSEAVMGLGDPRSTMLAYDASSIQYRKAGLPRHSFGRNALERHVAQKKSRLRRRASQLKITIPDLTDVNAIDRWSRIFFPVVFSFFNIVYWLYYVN
Chain of UniProt Q8IV63 (whole entry, looked up): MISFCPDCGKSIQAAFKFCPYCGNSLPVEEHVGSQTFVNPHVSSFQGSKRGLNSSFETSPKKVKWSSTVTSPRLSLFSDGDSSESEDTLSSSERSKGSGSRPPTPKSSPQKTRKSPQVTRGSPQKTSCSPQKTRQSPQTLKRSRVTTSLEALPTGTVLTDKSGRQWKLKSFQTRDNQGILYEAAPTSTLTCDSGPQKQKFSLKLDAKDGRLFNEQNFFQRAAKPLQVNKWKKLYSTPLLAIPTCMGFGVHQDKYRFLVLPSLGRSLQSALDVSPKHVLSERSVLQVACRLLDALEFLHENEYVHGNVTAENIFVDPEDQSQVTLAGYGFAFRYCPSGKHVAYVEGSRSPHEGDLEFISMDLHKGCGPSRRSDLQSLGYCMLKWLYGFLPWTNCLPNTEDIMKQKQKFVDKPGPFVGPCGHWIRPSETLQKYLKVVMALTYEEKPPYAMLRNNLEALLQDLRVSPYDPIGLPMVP

With `NCCCS(=O)(=O)O` the fraction bound was 0.000296 (SLC6A6 (Homo sapiens, UniProt P31641, Y138A); binding, microscale thermophoresis; 32.7 nM, fitted curve; higher = more binding).
The delta Tm of `Cn1c2c(c3ccccc31)C(C#N)C(C)(C)NC2=O` (stereo not drawn) is reported as 0 °C (Serine/threonine-protein kinase VRK3 (VRK3, Homo sapiens, UniProt Q8IV63); thermal stability, thermal shift; 10 µM; higher = stronger binding).
For `O=c1nc(SCc2cc(F)cc(C(F)(F)F)c2)nc(SCc2ccc3sccc3c2)[nH]1`, the decatenated DNA was 100% (TOP2A (Homo sapiens, UniProt P11388); decatenation; 7.8 µM, replicate 2).
`CN(C)c1nccc(-c2cnn3ncccc23)n1` gave a remaining binding of 100% and 57% (ABL1 (Homo sapiens, UniProt P00519, F317I); KINOMEscan; 1 µM; reference: control).
For `Nc1nnc(-c2ccccc2O)cc1N1CCN(Cc2ccc(OCCOCCNc3cccc4c3C(=O)N(C3CCC(=O)NC3=O)C4=O)c(F)c2)CC1` (stereo not drawn), the Dmax was 94% (SMARCA2 (Homo sapiens, UniProt P51531); degrader, immunoblot; SMARCA4-mutant lung cancer cells; 96 h, median of twelve cell lines).
Under “thermal stability ratio”, `O=C(COP(=O)(O)O)[C@@H](O)[C@H](O)[C@H](O)COP(=O)(O)O` is recorded as 0.647 (Myosin-10 (Homo sapiens, UniProt P35580); thermal proteome profiling, refers to: MYH10; HepG2 cell lysate; concentration not given, 57 over 37 °C, mean; reference: compound over control).
For `CC[C@H](C)[C@H](NC(=O)[C@H](CCCNC(=N)N)NC(=O)[C@H](Cc1c[nH]cn1)NC(=O)[C@H](CCCNC(=N)N)NC(=O)[C@H](CC(=O)O)NC(=O)[C@@H](N)CC(=O)O)C(=O)N[C@@H](CCC(=O)O)C(=O)N[C@@H](CCC(=O)O)C(=O)N[C@@H](CCCCN)C(=O)N[C@@H](CCCNC(=N)N)C(=O)N[C@@H](CCCCN)C(=O)N[C@@H](CCCNC(=N)N)C(=O)N[C@H](C(=O)N[C@@H](Cc1ccc(O)cc1)C(=O)N[C@@H](CCC(=O)O)C(=O)N[C@H](C(=O)N[C@@H](Cc1ccccc1)C(=O)N[C@@H](CCCCN)C(=O)N[C@@H](CO)C(=O)N[C@H](C(=O)N[C@@H](CCSC)C(=O)N[C@@H](CCCCN)C(=O)N[C@@H](CCCCN)C(=O)N[C@@H](CO)C(=O)N1CCC[C@H]1C(=O)N[C@@H](Cc1ccccc1)C(=O)N[C@@H](CC(N)=O)C(=O)NCC(=O)N1CCC[C@H]1C(=O)O)[C@@H](C)CC)[C@@H](C)O)[C@@H](C)O`, the -TΔS was -3.9 ± 0.2 kcal/mol (NF-kappa-B inhibitor alpha (Homo sapiens, UniProt P25963); binding, ITC; 293 K, 150 mM NaCl).
`COc1ccc(NC(=O)c2cccc(C)c2I)cc1` has a normalized score of 0.46 (GABA-A receptor; alpha-1/beta-2/gamma-2 (Rattus norvegicus, UniProt P18508+P62813+P63138); membrane potential, agonist, QP-DHM primary screen; HEK293 expressing GABAA; 10 µM; direction not given).
The IC50 ratio of `CCn1ccnc1CC1COc2ccccc2O1` (stereo not drawn) is reported as 1.77 (ADRA2B (Homo sapiens, UniProt P18089); TGFα shedding; reference: α2A over α2B).
`c1ccc2c(c1)-c1cccc3c1c-2cc1ccccc13` gave a fold change of 7.85 (Aryl hydrocarbon receptor; reporter gene, agonist, luciferase reporter; ZF-4; 30000 µM; reference: vehicle control).
The displacement of `CCOc1cc(-c2nncn2C)ccc1Nc1ncc2cc(C)nc(NCC(C)(C)C)c2n1` is reported as 29% (STK16; binding, LanthaScreen binding; 1 µM).
With `Nc1ccc2ccc3cccc4ccc1c2c34` the fold change was 1.3 (Aryl hydrocarbon receptor; reporter gene, agonist, luciferase reporter; ZF-4; 13.72 µM; reference: vehicle control).
The inhibition of `CC[C@@H]1[C@H](F)C(=O)N[C@@H]1COc1nccc2cc(C(N)=O)c(OC)cc12` is reported as 21.2% (STK16; ATP-site probe binding, ActivX profiling; THP-1 cell lysate; 0.01 mM, Lys2 site).
Under “lipid fraction bound”, `CCCCCCCCCCCCC/C=C/[C@@H](O)[C@H](CO)NC(=O)CCCCCCCCCCCCC` is recorded as 6.6% (Protein SET (SET, Homo sapiens, UniProt Q01105, Y135C); lipid binding, GFP pull-down LC-MS/MS; A549 overexpressing GFP-tagged protein; reference: eluate plus flow-through).
With `O=C(O)c1ccc(Nc2ncc3c(n2)-c2ccc(Cl)cc2C(c2c(F)cccc2F)=NC3)cc1` the remaining activity was 90% (Pyk2(h); kinase activity; 1 µM).

Some of these lines once more:
For `O=c1nc(SCc2cc(F)cc(C(F)(F)F)c2)nc(SCc2ccc3sccc3c2)[nH]1`, the decatenated DNA was 100% (TOP2A (Homo sapiens, UniProt P11388); decatenation; 7.8 µM, replicate 2).
For `Nc1nnc(-c2ccccc2O)cc1N1CCN(Cc2ccc(OCCOCCNc3cccc4c3C(=O)N(C3CCC(=O)NC3=O)C4=O)c(F)c2)CC1` (stereo not drawn), the Dmax was 94% (SMARCA2 (Homo sapiens, UniProt P51531); degrader, immunoblot; SMARCA4-mutant lung cancer cells; 96 h, median of twelve cell lines).
